Measurements gathered from unrelated publications.
Values joined by “and” are separate records of one study, mostly repeats; a detail may differ.
Cell line: RXF 393

`O=C(Nc1nnc2n3c(=S)[nH][nH]c3nc(-c3ccc(Cl)cc3)c1-2)c1ccccc1` has a cell growth of 87.6% (SRB; 10 µM, NCI60 single-dose screen; relative to: untreated).
With `CCCN1CCN(c2ccc3[nH]c(-c4ccc5[nH]c(-c6ccc(C(F)(F)F)cc6)nc5c4)nc3c2)CC1` the growth percent was -70.4% (SRB; 10 µM, 48 h).
The TGI of `C#C[C@@]1(O)[C@@H](CO)O[C@@H](n2cc(I)c3c(N)ncnc32)[C@@H]1O` is reported as 2.01 µM and 2.54 µM (SRB; NCI-60 screen).
With `NNc1nc(-c2ccc(Cl)cc2)c2c(NC(=O)c3ccccc3)nnc-2[nH]1` the cell growth was 99.7% (SRB; 10 µM, NCI60 single-dose screen; relative to: untreated).
`O=C1NC(=NCc2cccs2)S/C1=C\c1ccc2ncccc2c1` has an IC50 of over 10 µM (MTS; NCI60 panel).
With `CCOc1ccc(-c2nc3cc(-c4nc5cc(N6CCN(C)CC6)ccc5[nH]4)ccc3[nH]2)cc1OCC` the growth percent was -37.8% (SRB; 10 µM, 48 h).
`CCN(CC)c1ccc(C=NNC(=O)CSc2nc3ccccc3c(=O)n2Cc2ccc(S(N)(=O)=O)cc2)c(O)c1` has a TGI of over 100 µM (NCI five-dose screen).
With `Cc1cc(=O)[nH]n1-c1nc(-c2ccc(Cl)cc2)c2c(NC(=O)c3ccccc3)nnc-2[nH]1` the cell growth was 99.8% (SRB; 10 µM, NCI60 single-dose screen; relative to: untreated).
For `C#C[C@@]1(O)[C@@H](CO)O[C@@H](n2ccc3c(N)ncnc32)[C@@H]1O`, the TGI was 4.6 µM (SRB; NCI-60 screen).
The TGI of `CC(=O)O[C@H]1C(=O)[C@@]2(C)[C@H]([C@H](OC(=O)c3ccccc3)[C@]3(O)C[C@H](OC(=O)[C@H](O)[C@@H](NC(=O)c4ccccc4)c4ccccc4)C(C)=C1C3(C)C)[C@]1(OC(C)=O)CO[C@@H]1C[C@@H]2O` is reported as 0.5 µM (sulforhodamine B; Renal cancer; NCI60 screen).
With `CCCN1CCN(c2ccc3[nH]c(-c4ccc5[nH]c(-c6cc(OC)c(OC)c(OC)c6)nc5c4)nc3c2)CC1` the growth percent was 15.6% (SRB; 10 µM, 48 h).
`Cc1cc(-c2ccccc2)n(-c2nc(-c3ccc(Cl)cc3)c3c(NC(=O)c4ccccc4)nnc-3[nH]2)n1` gave a cell growth of 84.1% (SRB; 10 µM, NCI60 single-dose screen; relative to: untreated).
For `CN1CCN(c2ccc3[nH]c(-c4ccc5[nH]c(-c6ccc(C(F)(F)F)cc6)nc5c4)nc3c2)CC1`, the growth percent was -14.3% (SRB; 10 µM, 48 h).
`O=C1NCCc2[nH]c(-c3ccncc3)cc21` gave an IC50 of 3.47 µM (MTS; NCI60 panel).
